Published values gathered from unrelated publications.
Protocols differ between the studies behind these lines. “And” joins repeats or separate records; there may be more than shown. Numbers after ± are the reported error.
ache: Acetylcholinesterase (ache, Electrophorus electricus, UniProt O42275)
Acetyl-CoA synthetase: Acetyl-CoA synthetase (Cryptococcus neoformans, UniProt J9VFT1)

With `O=C(c1ccc(Cl)cc1)N1CCN2C(=O)N(OC(=O)N3CCOc4ccccc43)C(=O)C2C1` (stereo not shown) the median ratio was 1.07 (Testis-expressed protein 30 (TEX30, Homo sapiens, UniProt Q5JUR7); enzyme activity, inhibitor, MS-based ABPP; SW-620 in situ; 10 µM, 2 h, 37 °C; reference: compound over DMSO, lower = stronger inhibition).
With `[2H]c1c([2H])c([C@]2([2H])CCCN2C(=O)C(C)(C)Oc2ccc3cn[nH]c3c2)c([2H])c([2H])c1C([2H])([2H])[2H]` the remaining binding was 90% (GRK7 (Homo sapiens, UniProt Q8WTQ7); KINOMEscan; 1 µM; reference: DMSO control).
For `CC[N+]1(CC)CCN(c2ccccc2)CC1`, “response relative to ACh” read < 5% (CHRNA9 (Homo sapiens, UniProt Q9UGM1); peak current, agonist, two-electrode voltage clamp; Xenopus oocytes coexpressing rapsyn; 30 µM; reference: ACh 60 µM).
The fluorescence decrease of `O=c1cc(CSc2ccc(N=Cc3ccccc3)cc2)occ1O` is reported as 81% (PPO3 (Agaricus bisporus, UniProt C7FF04); intrinsic fluorescence; 50 µM; reference: 0 µM).
`C[C@H]1CN(c2n[nH]c3nc(N[C@H]4CC[C@H](NS(=O)(=O)CCC(F)(F)F)CC4)ncc23)CCO1` has a relative abundance of 1.03 (HADHA (Homo sapiens, UniProt P40939); inhibitor, Kinobeads competition profiling; 0.16 µM; reference: vehicle).
Under “binding enthalpy (ΔH)”, `Nc1nc2c(ncn2[C@@H]2O[C@@H]3COP(=O)(O)O[C@H]4[C@@H](O)[C@H](n5cnc6c(=O)[nH]c(N)nc65)O[C@@H]4COP(=O)(O)O[C@H]3[C@H]2O)c(=O)[nH]1` is recorded as 4.9 ± 0.118 kcal/mol (Cell cycle histidine kinase CckA, cytoplasmic region (Caulobacter vibrioides, UniProt Q9X688); isothermal titration calorimetry; concentration not given, added: ADP 5 mM).
`COc1cc2c3cc1Oc1cc(ccc1O)C[C@@H]1c4c(cc(OC)c(O)c4Oc4ccc(cc4)C[C@@H]3N(C)CC2)CC[N+]1(C)C` gave a response amplitude of 80% (Chrnd/Chrna1/Chrne (Mus musculus, UniProt P02716+P04756+P20782); mouse diaphragm; 0.04 µM, AChE intact; reference: control).
`CCN(CC)CCOc1ccc2c(c1)C(=O)c1cc(OCCN(CC)CC)ccc1-2` gave a Hill slope of 0.62 (ache; enzyme activity, inhibitor, Amplex Red).
Under “recovery time constant”, `CN1CCc2[nH]c3ccccc3c2CC1.O=C(O)/C=C/C(=O)O` is recorded as 19 ± 0.9 s (Nicotinic acetylcholine receptor alpha9/alpha10 (Rattus norvegicus, UniProt P43144+Q9JLB5); ion current, inhibitor, two-electrode voltage clamp; Xenopus laevis oocytes; 3 µM, rat receptor, added: acetylcholine 100 µM).
`CCN(CC)CCCC[C@H](NC(=O)[C@H](CC(C)C)NC(=O)[C@H](C)NC(=O)[C@H](Cc1ccccc1)NC(=O)c1ccc(C(C)(C)C)cc1)C(=O)N[C@@H](CO)C(=O)OC` gave a delta Tm of 0.56 °C (Protein polybromo-1, BD4 (PBRM1, Homo sapiens, UniProt Q86U86); thermal stabilisation, thermal shift; 25 µM; reference: protein without compound, higher = stronger binding).
`COc1cc(N)c(Cl)cc1C(=O)NC1CN2CCC1CC2` (stereo not shown) — result for “log2 fold change”: -0.03 (GPR39 (Homo sapiens, UniProt O43194); β-arrestin recruitment, TANGO luminescence; concentration not given; reference: basal luminescence).
`CC(C)C[C@@H]1NC(=O)[C@H](CC(=O)O)NC(=O)[C@@H]2CCCN2C(=O)[C@@H](NC(=S)Nc2ccc3c(c2)C(=O)OC32c3ccc(O)cc3Oc3cc(O)ccc32)CSCc2cccc(c2)CSC[C@@H](C(N)=O)NC1=O`: “log2 fold change” 7.34 and 7.3 (Kelch-like protein 20 (Homo sapiens, UniProt Q9Y2M5); binding, pull-down proteomics; PC-3; concentration not given; reference: compound beads over empty beads).
`CC[C@@H](C)[C@@H](NC(=O)[C@@H](Cc1ccc(O)cc1)NC(=O)[C@H]1CCCN1C(=O)[C@@H](CCCNC(=N)N)NC(=O)[C@H](N)Cc1c[nH]cn1)C(=O)N[C@H](C)C(=O)N[C@H](Cc1c[nH]cn1)C(=O)N[C@H](CCCNC(=N)N)C(=O)N[C@H](CCCCNC(=O)c1cccc(S(=O)(=O)F)c1)C(=O)N[C@H](Cc1ccc(O)cc1)C(=O)N[C@H](CO)C(=O)N[C@H](Cc1ccccc1)C(N)=O` gave a surface expression of 0.533 and 0.921 (Transferrin receptor protein 1 (Tfrc, Mus musculus, UniProt Q62351); flow cytometry; RAW264.7; 48 h, pH 7.4, unit not given; reference: 0 h).
`O=C(O)C(/C=C/c1c(Cl)cccc1Cl)=N\Nc1nc(-c2ccc(Cl)cc2)cs1` has a selectivity index of 80 (ache; Ellman; reference: IC50 BChE over IC50 AChE).
The Emax of `CC[C@H](C)[C@H](NC(=O)[C@H](CO)NC(=O)[C@H](Cc1ccc(O)cc1)NC(=O)[C@H](CC(=O)O)NC(=O)[C@H](CO)NC(=O)[C@@H](NC(=O)[C@H](Cc1ccccc1)NC(=O)[C@@H](NC(=O)CNC(=O)[C@H](CCC(=O)O)NC(=O)[C@H](C)NC(=O)[C@@H](N)Cc1ccc(O)cc1)[C@@H](C)O)[C@@H](C)CC)C(=O)N[C@@H](C)C(=O)N[C@@H](CCSC)C(=O)N[C@@H](CC(=O)O)C(=O)N[C@@H](CCCCN)C(=O)N[C@H](C(=O)N[C@@H](Cc1c[nH]cn1)C(=O)N[C@@H](CCC(N)=O)C(=O)N[C@@H](CCC(N)=O)C(=O)N[C@@H](CC(=O)O)C(=O)N[C@@H](Cc1ccccc1)C(=O)N[C@H](C(=O)N[C@@H](CC(N)=O)C(=O)N[C@@H](Cc1c[nH]c2ccccc12)C(=O)N[C@@H](CC(C)C)C(=O)N[C@@H](CC(C)C)C(=O)N[C@@H](C)C(=O)N[C@@H](CCC(N)=O)C(=O)N[C@@H](CCCCN)C(=O)NCC(=O)N[C@@H](CCCCN)C(=O)N[C@@H](CCCCN)C(=O)N[C@@H](CC(N)=O)C(=O)N[C@@H](CC(=O)O)C(=O)N[C@@H](Cc1c[nH]c2ccccc12)C(=O)N[C@@H](CCCCN)C(=O)N[C@@H](Cc1c[nH]cn1)C(=O)N[C@@H](CC(N)=O)C(=O)N[C@H](C(=O)N[C@H](C(=O)N[C@@H](CCC(N)=O)C(=O)O)[C@@H](C)O)[C@@H](C)CC)C(C)C)[C@@H](C)CC` is reported as 104% (Gastric inhibitory polypeptide receptor (Mus musculus, UniProt Q0P543); β-arrestin-2 recruitment, agonist).
`COc1cc(F)cc2c(N3CCN(c4ccccc4OC(C)C)CC3)c(C#N)nnc12` — result for activity: “inactive” (GRM8 (Homo sapiens, UniProt O00222); positive allosteric modulator; concentration not given, added: glutamate).
The Km of `O=C[C@H](O)COP(=O)(O)O` is reported as 51 µM (Triosephosphate isomerase (Trypanosoma brucei, UniProt Q385L6, P168A/I172A); substrate).
With `O=C(O)COP(=O)(O)O` the Ki ratio was 1610 (Triosephosphate isomerase (TPI1, Gallus gallus, UniProt P00940, G210A/S211G/Y208T); enzyme activity, competitive inhibitor, GPDH/NADH-coupled; pH 5.7, 25 °C, ionic strength 0.1 NaCl, added: glyceraldehyde 3-phosphate substrate; reference: mutant over wild type).
For `CCN(CC)S(=O)(=O)c1ccc(Cl)c(C(=O)Nc2ccc3nc(C)sc3c2)c1`, the remaining activity was 86.5% and 84.5% (Acetyl-CoA synthetase; 50 µM).
The remaining activity of `CCOC(=O)CC(SP(=O)(OC)OC)C(=O)OCC` (stereo not shown) is reported as 52.7% (uncharacterized protein (Anopheles coluzzii, UniProt A0A6E8VQK1); enzyme activity, inhibitor; Sf9 cell homogenate; 0.2294 µM, 0.1667 h, added: α-naphthyl acetate substrate; reference: no inhibitor).
`COc1cc2oc(-c3ccc(O)c(O)c3)cc(=O)c2c(O)c1O` has a Ki' of 14 µM (Genome polyprotein, NS2B-NS3 protease (ZIKV, UniProt A0A024B7W1); enzyme activity, non-competitive inhibitor; added: Bz-nKRR-AMC substrate).
The reaction velocity of `O=c1c2ccccc2oc2cc(OCCCCc3ccccc3)ccc12` is reported as 0.0022 a.u. (ache; enzyme activity; 2.91 µM, added: substrate 3.45 mM; higher = faster reaction).
Under polyphosphate synthesis, `Nc1ccc(O)c(C(=O)O)c1` is recorded as “inhibited” (ppk (Escherichia coli, UniProt P0A7B1, E56K); inhibitor; 1 mM; reference: DMSO).
The EC25 of `Oc1ccc(-c2cc(Cl)ccc2Cl)c(Cl)c1` is reported as 0.1 µM (Estrogen receptor (ESR1, Homo sapiens, UniProt P03372); reporter gene, agonist; T47D.luc; 24 h; reference: estradiol).
`O=C(CCc1ccccc1)N[C@H]1CCOC1=O` gave an Emax of 82.1% (Regulatory protein SdiA (sdiA, Escherichia coli, UniProt P07026)).
`CCNS(=O)(=O)C(F)(F)C(F)(F)C(F)(F)C(F)(F)C(F)(F)C(F)(F)C(F)(F)C(F)(F)F` — result for “binding fold change”: 34.1 (FABP1 (Homo sapiens, UniProt P07148); affinity selection mass spectrometry; 100 nM, added: pooled compounds; reference: other proteins).
Under “normalised MST signal”, `O=C(O)Cc1c[nH]cn1` is recorded as -0.0198 (SLC6A6 (Homo sapiens, UniProt P31641, Y138A); binding, microscale thermophoresis; 122 nM, room temperature, added: 50 nM labelled protein; higher = more binding).
`COc1ccc(N2C(=O)N(c3c(C)cccc3Cl)Cc3cnc(Nc4ccc(C5CCN(C)CC5)cc4OC)nc32)nc1` has an inhibition of 5.46% (PRKCQ (Homo sapiens, UniProt Q04759); kinase activity, inhibitor; 0.5 µM, kinase PKC-THETA).
With `COc1ncccc1-c1cnn2ccc(N3CCN(C(=O)OC(C)C)CC3)nc12` the remaining binding was 100% (Ribosomal protein S6 kinase alpha-6, C-terminal kinase domain (RPS6KA6, Homo sapiens, UniProt Q9UK32); KINOMEscan binding; 1 µM; reference: untreated control).
With `O=C(CF)NC1C(O)CC(OC2C(O)C(CO)OC(Oc3ccc([N+](=O)[O-])cc3)C2O)(C(=O)O)OC1C(O)C(O)CO` (stereo not shown) the Vmax was 0.00061 ± 3e-05 mM/s (Sialidase-2 (Homo sapiens, UniProt Q9Y3R4); substrate; 10 min, pH 5.0, 37 °C).
The kcat of `Cc1cn([C@H]2C[C@H](O)[C@@H](COP(=O)(O)Oc3ccc([N+](=O)[O-])cc3)O2)c(=O)[nH]c1=O` is reported as 1.6 s⁻¹ (Autotaxin (ENPP2, Homo sapiens, UniProt Q13822); phosphodiesterase activity, substrate).
`CN1CCN(c2cc(-c3ccncc3)c(-c3ccc4ccccc4c3)nn2)CC1` gave an activation of 3.6% (CHRM5 (Homo sapiens, UniProt P08912); agonist, FLIPR; 12.5 µM).
For `CSCC[C@H](N)C(=O)N[C@@H](C)C(=O)N[C@@H](C)C(=O)N[C@H](C(=O)N[C@@H](C)C(=O)NCC(=O)N[C@@H](CC(C)C)C(=O)N[C@@H](Cc1ccc(O)cc1)C(=O)NCC(=O)N[C@@H](CC(C)C)C(=O)NCC(=O)N[C@@H](CCC(=O)O)C(=O)N[C@@H](CC(=O)O)C(=O)N[C@@H](CCCNC(=N)N)C(=O)N[C@@H](CCC(N)=O)C(=O)N[C@@H](Cc1c[nH]cn1)C(=O)N[C@@H](CCCNC(=N)N)C(=O)N[C@@H](CCCCN)C(=O)N[C@@H](CCCCN)C(=O)N[C@@H](CCC(N)=O)C(N)=O)C(C)C`, the Hill coefficient was 0.94 (Sh, DEL6-46 (Drosophila melanogaster, UniProt P08510); ion current, blocker, inside-out patch clamp; +90 mV).
The binding score of `CC[C@H](CO)Nc1nc(NCc2ccccc2)c2ncn(C(C)C)c2n1` is reported as 0.75 (CDK7 (Homo sapiens, UniProt P50613); KINOMEscan competition binding; 10 µM, primary screen; direction not given).
`O=C(NNC(=O)c1csnn1)c1ccc(Cl)cc1` has a remaining activity of -0.0953% (Acetyl-CoA synthetase; 50 µM).
The pK of `CC=O` is reported as 9.27 ± 0.04 (ADH1 (Saccharomyces cerevisiae, UniProt P00330, H49Q); turnover number pH profile, substrate).
`Cc1nn(C)cc1-c1nc2c(N3CCN(Cc4ccc(Cl)cc4)CC3)c(Cl)cnc2[nH]1` gave a remaining binding of 99% (CDKL5 (Homo sapiens, UniProt O76039); KINOMEscan; 1 µM; reference: DMSO control).

Repeated from above:
`COc1cc2c3cc1Oc1cc(ccc1O)C[C@@H]1c4c(cc(OC)c(O)c4Oc4ccc(cc4)C[C@@H]3N(C)CC2)CC[N+]1(C)C` gave a response amplitude of 80% (Chrnd/Chrna1/Chrne (Mus musculus, UniProt P02716+P04756+P20782); mouse diaphragm; 0.04 µM, AChE intact; reference: control).
`CCN(CC)CCOc1ccc2c(c1)C(=O)c1cc(OCCN(CC)CC)ccc1-2` gave a Hill slope of 0.62 (ache; enzyme activity, inhibitor, Amplex Red).
Under “recovery time constant”, `CN1CCc2[nH]c3ccccc3c2CC1.O=C(O)/C=C/C(=O)O` is recorded as 19 ± 0.9 s (Nicotinic acetylcholine receptor alpha9/alpha10 (Rattus norvegicus, UniProt P43144+Q9JLB5); ion current, inhibitor, two-electrode voltage clamp; Xenopus laevis oocytes; 3 µM, rat receptor, added: acetylcholine 100 µM).
